Measured values pooled from the literature.
Numbers after ± are the reported error.
Mode: inhibitor
gag-pol reverse transcriptase p66/p51: Gag-Pol polyprotein, reverse transcriptase p66/p51 (gag-pol, Human immunodeficiency virus type 1 group M subtype B, UniProt P04585)
gag-pol integrase: Gag-Pol polyprotein, integrase (gag-pol, Human immunodeficiency virus type 1 group M subtype B, UniProt P04585)
gag-pol RT RNase H domain: Gag-Pol polyprotein, RT RNase H domain (gag-pol, Human immunodeficiency virus type 1 group M subtype B, UniProt P04585)

For `O=c1cc(CN2CCN(C(c3ccccc3)c3ccccc3)CC2)c2ccc(O)c(O)c2o1`, the IC50 was 2.2 µM (gag-pol reverse transcriptase p66/p51; RNase H activity, fluorescence; HIV-1; pH 7.4, with: 1 mM Mg2+).
`O=c1cc(Sc2ccccc2-c2ccc(F)cc2)[nH]c(=O)n1O` gave an IC50 of > 100 µM (gag-pol integrase; strand transfer activity; HIV-1).
`COc1ccccc1C(=O)Nc1sc2c(c1C(=O)Nc1ccccn1)CCCCC2` gave an IC50 of 14.2 ± 0.2 µM (gag-pol RT RNase H domain; RNase H activity; wild type reverse transcriptase).
For `O=c1cc(CN2CCN(c3cccc(Cl)c3)CC2)c2ccc(O)c(O)c2o1`, the IC50 was 0.4 µM (gag-pol reverse transcriptase p66/p51; RNase H activity; p66/p51 RT heterodimer; pH 8.0, with: 10 mM Mg2+).
With `COc1ccc(-c2ccc(Sc3cc(=O)n(O)c(=O)[nH]3)cc2)cc1` the IC50 was > 100 µM (gag-pol integrase; strand transfer activity; HIV-1).
`NC(=O)c1c(N)sc2c1CCCCC2` gave an IC50 of 4 ± 0.5 µM (gag-pol RT RNase H domain; RNase H activity; wild type reverse transcriptase).
`C=C(C)[C@@H]1CC[C@]2(C(=O)[O-])CC[C@]3(C)[C@H](CC[C@@H]4[C@@]5(C)CC[C@H](O)C(C)(C)[C@@H]5CC[C@]43C)[C@@H]12.C[N+](C)(C)CCO` gave an IC50 of 22 µM (Gag-Pol polyprotein, protease (gag-pol, Human immunodeficiency virus type 1 group M subtype B, UniProt P04585); enzyme activity; pH 4.7).
`CCOCn1c(C(=O)c2ccccc2)c(CC)c(=O)n(O)c1=O` has an IC50 of > 111 µM (gag-pol integrase; strand transfer, gel-based; HIV-1).
For `CC1(C)CC(NC(=O)C(=O)Nc2ccc(Cl)cc2)CC(C)(C)N1`, the IC50 was > 300 µM (Gag-Pol polyprotein, reverse transcriptase (gag-pol, Human immunodeficiency virus type 1 group M subtype B, UniProt P04585); enzyme activity).
`COc1ccc(N2CCN(Cc3cc(=O)oc4c(O)c(O)ccc34)CC2)cc1` has an IC50 of 2.1 µM (gag-pol reverse transcriptase p66/p51; RNase H activity, fluorescence; HIV-1; pH 7.4, with: 1 mM Mg2+).
For `COc1cc(OC)cc(-c2ccc(Sc3cc(=O)n(O)c(=O)[nH]3)cc2)c1`, the IC50 was > 100 µM (gag-pol integrase; strand transfer activity; HIV-1).
The IC50 of `O=C(O)c1ccc(-c2cccc(/C=N/NC(=O)c3cc(O)c(O)c(O)c3)c2)cc1` is reported as 0.2 ± 0.1 µM (gag-pol RT RNase H domain; RNase H activity; HIV-1; with: 10 mM Mg2+).

Excerpt of the above:
`CCOCn1c(C(=O)c2ccccc2)c(CC)c(=O)n(O)c1=O` has an IC50 of > 111 µM (gag-pol integrase; strand transfer, gel-based; HIV-1).
